Assay results pooled from the literature.
A part holds a random share of what one study measured. Substitutions count along the parent as printed.

Study 1
Target: Centromere-binding protein 1, full length, His-tagged (CBF1, Saccharomyces cerevisiae, UniProt P17106, residues 1-351)
Chain of UniProt P17106 (whole entry, looked up): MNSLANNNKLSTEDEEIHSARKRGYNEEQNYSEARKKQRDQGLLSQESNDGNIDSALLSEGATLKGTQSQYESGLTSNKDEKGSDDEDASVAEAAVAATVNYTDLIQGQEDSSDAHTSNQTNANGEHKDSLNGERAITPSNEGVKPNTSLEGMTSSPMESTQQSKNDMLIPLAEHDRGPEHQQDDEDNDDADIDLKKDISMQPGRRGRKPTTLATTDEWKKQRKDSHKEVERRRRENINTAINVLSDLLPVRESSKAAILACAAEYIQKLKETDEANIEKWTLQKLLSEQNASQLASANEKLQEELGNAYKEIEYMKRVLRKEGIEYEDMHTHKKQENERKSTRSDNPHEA
Technique: competition protein-binding microarray
Form: double-stranded DNA, one strand shown
Matrix: in vitro
Concentration: 2 µM
Setting: whole 60-bp probe, lowest competitor level
With: Pho4 competitor, 0.05 µM
Direction: higher = stronger binding
Shared flanks, not repeated: … GTCTTGATTCGCTTGACGCTGCTG
| Sequence | fluorescence intensity |
| --- | --- |
| TGGGTAAGATTTCACCACGTGAGGAGCATAATATTG | 1630 a.u. |
| TGCAGGTAAGTGACTCACATGCTTTGAAAAGTTCCT | 201 a.u. |
| CTAACGAAGGTTTGGGCCGTGGGTGACAAGCCAAGT | 60.5 a.u. |
| GACCAGCTTGTGAGGCATGTGTCACCCTGGAATTTC | 79.8 a.u. |
| TGCGCAACAACTTGGGTGGTGGGTGTATGTCTAGAA | 70.2 a.u. |
| TTCCTAGACTGGTCCCACGTTGGGAAAAACCAATCA | 86.3 a.u. |
| AACCGCATCCCGTCCCACGTGACGGACGGCACCCAA | 3150 a.u. |
| CAATGGTTACTTCGACACATGCCACTAAGACAATAC | 103 a.u. |
| CTTATAAACAGCGCTGACGTGCTTTGACTTTGTTCC | 72.6 a.u. |
| GCGCTGTTCTGCGGATGCGTGACGGTATCCGCAAAG | 88.7 a.u. |
| TAATAATTAGCCCTTCACGTGATGGCAGCCAGTTGT | 1870 a.u. |
| CTAACGAAGGTTTGATCTGTGGGTGACAAGCCAAGT | 69 a.u. |
| AAAGCGGTAATTTGGGATGTGGGTGCAGATATCTAT | 75.7 a.u. |
| CTACCATTATGCAAAAGCGTGCTAAGAAGAACGAAA | 110 a.u. |
| CTAACGAAGGTTTGCGGGGTGGGTGACAAGCCAAGT | 73.3 a.u. |
| TATTCACAGAGTTCTCATGTGACAGGTATTGATGAT | 674 a.u. |
| AAATTACTAAGTTGAGAAGTGGGTGACGCCGTATGA | 90.6 a.u. |
| CCTAATGCTGAAAAGCCCGTGCTTTTCCATTCTGCG | 88.6 a.u. |
| CTTGTATATATAAATGTCGTGATGGTTCTATGCCAA | 125 a.u. |

Study 2
Target: CCNE2, cyclin fold, Cln2 fusion (human)
Technique: yeast growth competition, sequencing
Matrix: yeast
Setting: weak parent motif
Reference: not given
Direction: higher = stronger binding
Starting sequence: DBF4B docking peptide (human); LGYLYLLLTQSLW; partner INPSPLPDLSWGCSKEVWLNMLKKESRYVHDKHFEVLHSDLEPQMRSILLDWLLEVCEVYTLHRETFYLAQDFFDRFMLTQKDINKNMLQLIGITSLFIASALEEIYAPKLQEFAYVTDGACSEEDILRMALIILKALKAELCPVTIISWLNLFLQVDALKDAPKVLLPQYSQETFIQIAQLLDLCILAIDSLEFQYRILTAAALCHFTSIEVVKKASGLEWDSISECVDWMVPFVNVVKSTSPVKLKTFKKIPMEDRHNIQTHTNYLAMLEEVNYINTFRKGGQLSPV
| Change | normalised enrichment score |
| --- | --- |
| G2A | 0.725 |
| L8A | 1.04 |
| T9A | 0.753 |
| L12A | 0.77 |
| Q10A | 1.18 |
| W13A | 0.532 |
| L4A | 1.01 |

Study 3
Target: Ras GTPase-activating protein-binding protein 1, C-terminal RGG region (G3BP1, Homo sapiens, UniProt Q13283)
Chain of UniProt Q13283 (whole entry, looked up): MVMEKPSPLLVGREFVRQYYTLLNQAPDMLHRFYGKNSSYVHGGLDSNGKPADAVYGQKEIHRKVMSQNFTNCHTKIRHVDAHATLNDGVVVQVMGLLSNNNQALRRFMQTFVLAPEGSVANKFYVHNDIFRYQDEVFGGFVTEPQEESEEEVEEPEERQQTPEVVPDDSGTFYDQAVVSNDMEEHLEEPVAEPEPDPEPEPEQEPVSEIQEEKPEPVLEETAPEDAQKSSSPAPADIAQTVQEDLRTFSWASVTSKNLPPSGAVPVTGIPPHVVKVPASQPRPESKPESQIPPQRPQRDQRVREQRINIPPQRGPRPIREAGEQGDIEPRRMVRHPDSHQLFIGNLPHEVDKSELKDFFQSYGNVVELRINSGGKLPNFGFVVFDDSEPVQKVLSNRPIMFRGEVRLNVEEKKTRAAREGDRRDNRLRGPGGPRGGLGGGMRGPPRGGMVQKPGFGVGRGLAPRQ
Technique: RNA Bind-n-Seq
Form: RNA
Matrix: in vitro
Concentration: 1 µM
Setting: whole 134-nt RNA, ends assumed
With: 150 mM KCl
Reference: input library
Direction: higher = stronger binding
Shared flanks, not repeated: GGGAGUUCUACAGUCCGACGAUC … UGGAAUUCUCGGGUGUCAAGG
| Sequence | log2 enrichment |
| --- | --- |
| UCAAGUCCUGUGCUACACAUCGUAUGUACCGAAUCGGAAAGGUUUUUUUGGUGGAAAGUAUUAUGUUACGCCGUUCGGAUCUGCACUUCC | -1.34 |
| CCUCAAGUCCUGUGCUACACAUCGUAUGUACCGAAUCGGGCGGGGCGGCGGGAAAGUAUUAUGUUACGCCGUUCGGAUCUGCACUUCCAG | -0.365 |
| GUGCUACACAUCGUAUGUACCGAAUCGGGGAAAAAAAGGGGAAAAAAAGGGGAAAAAAAGGGGAAAGUAUUAUGUUACGCCGUUCGGAUC | 0.386 |
| UGGGAGGUGGAUUUUGUUUAUUUUUUUAGCUCAUUUCCAGGGGUGGGAAUUUUUUUUUAAUAUGUGUCAUGAAUAAUGUUGUUUUUGAAA | 1.7 |
| UCCUCAAGUCCUGUGCUACACAUCGUAUGUACCGAAUCGGGCGGCGGGCGGGAAAGUAUUAUGUUACGCCGUUCGGAUCUGCACUUCCAG | 0.451 |
| UCAAGUCCUGUGCUACACAUCGUAUGUACCGAAUCGGCCGGGGCCGGGGCCGGGAAAGUAUUAUGUUACGCCGUUCGGAUCUGCACUUCC | -1.88 |
| GUCCUGUGCUACACAUCGUAUGUACCGAAUCAAAUUUUUUUAAAUUUAAACCCCCAAAAAAGUAUUAUGUUACGCCGUUCGGAUCUGCAC | -0.764 |
| CAAGUCCUGUGCUACACAUCGUAUGUACCGAAUCGGGAAAGGGAAAGGGUUUGGGAAAGUAUUAUGUUACGCCGUUCGGAUCUGCACUUC | 1.73 |
| AGUCCUGUGCUACACAUCGUAUGUACCGAAUCGGGGAAAGGGGAGGGGAAAAAGGGGAAAGUAUUAUGUUACGCCGUUCGGAUCUGCACU | 1.86 |

Study 4
Target: RING finger protein unkempt homolog, zinc fingers 1-6, GST-SBP tag (UNK, Homo sapiens, UniProt Q9C0B0, residues 30-357)
Technique: RNA Bind-n-Seq
Form: RNA
Matrix: in vitro
Concentration: not given
Setting: RNA with constant flanks, human-mouse chimeric sites, ends assumed
Reference: input RNA pool
Direction: higher = stronger binding
Shared flanks, not repeated: GGGAGUUCUACAGUCCGACGAUC … CAACAGAGGAUUGAGCAUCA
Construct (chain): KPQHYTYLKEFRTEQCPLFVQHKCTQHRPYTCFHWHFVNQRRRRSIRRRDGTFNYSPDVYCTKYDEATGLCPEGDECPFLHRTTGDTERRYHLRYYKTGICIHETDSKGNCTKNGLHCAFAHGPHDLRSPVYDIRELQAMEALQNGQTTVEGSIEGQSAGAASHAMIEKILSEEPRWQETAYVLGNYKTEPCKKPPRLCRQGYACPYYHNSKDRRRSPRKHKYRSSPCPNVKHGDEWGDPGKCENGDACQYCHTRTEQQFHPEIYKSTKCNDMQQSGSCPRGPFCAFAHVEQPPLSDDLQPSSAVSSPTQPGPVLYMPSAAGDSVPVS
| Sequence | bound/input enrichment [ratio] |
| --- | --- |
| GUGCCCUUCUCGCUGCUGCGGAGCCCGAGCUGGGAACCAUUCCGGGACGACUGGUACGCACACAGCCGCCUCUUCGAUCAAGCUUUCGGGGUGCCCCGGUUGCCCGAUGAGUGGUCGCAG | 0.0904 |
| GACCCACAGUGGUCUGAGGAGCAACUCAUUGCUGCAAAAUUCUGUUUUGCUGGCCUUCUUAUAGGCCAGACUGAAGUGGACAUCAUGAGUCAUGCCACACAAGCUAUUUUUGAAAUUCUG | 0.151 |
| GAAAGAGAACUAAAGCAACUAAUAGAGAAGAGGAUUGGCAAAGAGAAUUUCAUAGAGAAACUAGGAUUUAUUAGCAAACAUGAGUUAUAUUCCAGAGCGUCUCAGAAAACCCCAGCCAAC | 4.39 |
| AAAGAGUGGAUAGAGUGUGCACACGGGAUCGGUGGGACCCGGGCGAAGAAAGAGUGCAAGAUAGAAUUCGAUGACUUCGAAGAGUGCUUGCUUCGGUACAAAACGAUGAGGCGAAUGCAU | 0.345 |
| GAAUCCUCCCGUGCAAAAUUUUGCAACACCAAGCUCACAGCAGCAGCAUCUUAGUCACAGUAGGGUAGUUUUGGGGCUCUGUGGCCAGGGUUUUAUUCACAUGCAGGUUUUGAAAAUGUA | 1.94 |
| GCUGGAUCUUCUAAGUACCAGUGGGACAUUAUGAAAUCCCUUGGGCUCUCUGAUGACGACAUAGUGAAGUUUUCUGAAGCAGAGCACUGGCUUGAUUAUUUCCCACCACUGGCUAUUCAG | 0.0815 |
| UGGCGCCUGCGCUCCCCACUCGUGUUUUUAAGUGUAUUUUUAUAAGACAUGUGUAUUUACAAUUGAGUUUUUGAUUAAUAAUGCUGAAAUGCUACUGGAGAUUAUGAAAAAUGUUUCAAU | 0.273 |
| CAGGGCAUCAUCUCUCGUGCUGUUAGACACCUGUUCAAGAGUAUUGAAGAAAAAAAAACCUCAGCGAUUAAAAACGGGCUGCCCCCUCCUGAAUUCAAAGUGAAUGCCCAGUUCCUAGAG | 0.633 |

Study 5
Target: Prothrombin, mature alpha-thrombin (F2, Homo sapiens, UniProt P00734)
Technique: aptamer microarray, sandwich
Form: DNA with 2'F-ANA
Matrix: in vitro
Concentration: 200 nM
Setting: whole 15-mer aptamer, many near background
With: Cy3 exosite-II aptamer, 400 nM
Direction: higher = stronger binding
Sequence: GGTTGGTGTGGTTGG
| Modification | mean fluorescence intensity [a.u.] |
| --- | --- |
| 2'F-ANA at 2 3 4 5 7 10 12 14 | 115 |
| 2'F-ANA at 3 5 7 8 12 13 14 | 81.5 |
| 2'F-ANA at 1 2 3 4 5 6 10 13 15 | 95.8 |
| 2'F-ANA at 4 5 9 13 | 47.4 |
| 2'F-ANA at 1 2 3 6 10 11 12 14 15 | 50.8 |
| 2'F-ANA at 7 10 11 | 159 |
| 2'F-ANA at 1 2 4 5 7 11 13 15 | 50.6 |
| 2'F-ANA at 3 6 10 13 | 478 |
| 2'F-ANA at 1 4 5 6 7 8 11 | 53 |
| 2'F-ANA at 2 5 6 8 11 12 14 15 | 415 |
| 2'F-ANA at 1 3 4 5 6 7 8 11 13 15 | 50.6 |
| 2'F-ANA at 6 7 9 10 12 15 | 198 |
| 2'F-ANA at 1 3 6 7 8 10 11 12 13 | 107 |
| 2'F-ANA at 3 4 7 9 10 12 13 14 15 | 192 |
| 2'F-ANA at 1 2 5 10 11 13 15 | 47.7 |
| 2'F-ANA at 1 4 6 8 11 12 13 14 15 | 56.9 |
| 2'F-ANA at 6 7 8 11 12 15 | 702 |
| 2'F-ANA at 3 5 6 8 10 11 15 | 52.9 |
| 2'F-ANA at 1 5 7 8 10 11 12 14 | 287 |
| 2'F-ANA at 1 5 11 12 13 14 | 44.4 |
| 2'F-ANA at 1 2 4 8 9 10 14 | 44.7 |
| 2'F-ANA at 1 3 4 5 6 7 9 10 12 13 14 | 47.6 |
| 2'F-ANA at 2 3 4 5 7 9 11 14 | 56.6 |
| 2'F-ANA at 3 4 5 6 7 8 14 | 76.3 |
| 2'F-ANA at 2 6 7 10 12 13 14 | 100 |

Some of these lines once more (study 5):
| Modification | mean fluorescence intensity [a.u.] |
| --- | --- |
| 2'F-ANA at 1 2 4 8 9 10 14 | 44.7 |
| 2'F-ANA at 1 3 4 5 6 7 9 10 12 13 14 | 47.6 |
| 2'F-ANA at 2 3 4 5 7 9 11 14 | 56.6 |
| 2'F-ANA at 3 4 5 6 7 8 14 | 76.3 |
| 2'F-ANA at 2 6 7 10 12 13 14 | 100 |
